Experimental data gathered from unrelated publications.
Parts stem from different laboratories: compare values within a part only.

Study 1
Target: Histone acetyltransferase KAT6A, winged helix 1, GST fusion (KAT6A, Homo sapiens, UniProt Q92794, residues 1-85)
Technique: protein binding microarray
Molecule type: double-stranded DNA, one strand shown
Medium: in vitro
Concentration: not given
Setting: 8-mer, flanks averaged, mean of 2 arrays, mostly near background
Baseline: not given
Direction: higher = stronger binding
Residues (chain): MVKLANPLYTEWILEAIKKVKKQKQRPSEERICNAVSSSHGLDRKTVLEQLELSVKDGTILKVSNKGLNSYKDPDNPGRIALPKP
Strand	E-score
GACTGCAA	-0.126
AGCAACTA	-0.157
GAAGGCGC	0.339
CTACGATA	-0.118
AGGTTAGC	-0.0113
ACGTGTAT	-0.181

Study 2
Target: RING finger protein unkempt homolog, zinc fingers 1-6, GST-SBP tag (UNK, Homo sapiens, UniProt Q9C0B0, residues 30-357)
UniProt Q9C0B0, sequence (30-357, looked up): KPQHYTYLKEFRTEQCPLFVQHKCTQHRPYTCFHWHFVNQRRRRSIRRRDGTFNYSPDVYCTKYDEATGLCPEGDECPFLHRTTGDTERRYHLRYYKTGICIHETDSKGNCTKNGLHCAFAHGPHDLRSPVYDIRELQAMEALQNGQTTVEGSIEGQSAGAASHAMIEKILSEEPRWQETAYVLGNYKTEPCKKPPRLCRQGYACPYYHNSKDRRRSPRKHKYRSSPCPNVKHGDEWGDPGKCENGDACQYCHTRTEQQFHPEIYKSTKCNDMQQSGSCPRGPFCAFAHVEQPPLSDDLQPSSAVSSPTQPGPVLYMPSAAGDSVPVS
Technique: RNA Bind-n-Seq
Molecule type: RNA
Medium: in vitro
Concentration: not given
Setting: RNA with constant flanks, human-mouse chimeric sites, ends assumed
Baseline: input RNA pool
Direction: higher = stronger binding
Strand	bound/input enrichment [ratio]
GGGAGUUCUACAGUCCGACGAUCCAGGGCAUUAUUUCUCGUGCUGUUAGACACCUGUUCAAGAGUAUUGAAGAAAAAAAAACCUCAGCGAUUAAAAACGGGCUGCCCCCUCCUGAAUUCAAAGUGAAUGCCCAGUUCCUAGAGCAACAGAGGAUUGAGCAUCA	0.374
GGGAGUUCUACAGUCCGACGAUCACCAUUUCUGAAUACACGGCUUUGUGUGUAGUUCACUUACGGUAUUAAAUUAUUAUUCUGCUUAGCUUAUAAUAAGGAUAAUUGCAUUUAAAGAGGUUACUGAAUGUUACUCUGAAACUUCAACAGAGGAUUGAGCAUCA	0.386
GGGAGUUCUACAGUCCGACGAUCAAAGUGAUGACUAUGUUUGUACAGCGACAGGUAUUUUCGGAGAGCAAAGAUGAGAUUGCGUUAGUCCUCUAUGGCACAGAUGGCACUGAUAAUGCCCUUGCUGGCAAGGACCAGUAUCAGCAACAGAGGAUUGAGCAUCA	0.161
GGGAGUUCUACAGUCCGACGAUCCUUCGGAAAAAAAAAUUACCUUUUCUGACAGUGCUUUCCCUCCCAUAGAUCCACGUUCAAGCUCAAAGAGCAAAGGCUUUGCACGGAGCUCAAACAUCUGAUGAAGAUUUUUGAGACAGACAACAGAGGAUUGAGCAUCA	0.483

Study 3
Target: RNA binding protein fox-1 homolog 2, RRM domain, GST-SBP tag (RBFOX2, Homo sapiens, UniProt O43251-10, residues 100-194)
Technique: RNA Bind-n-Seq
Molecule type: RNA
Medium: in vitro
Concentration: 365 nM
Setting: natural RNA segment, single round, ends assumed
Baseline: no-protein control
Direction: higher = stronger binding
All sequences stand within: GGGAGUUCUACAGUCCGACGAUC … UGGAAUUCUCGGGUGCCAA
Residues (chain): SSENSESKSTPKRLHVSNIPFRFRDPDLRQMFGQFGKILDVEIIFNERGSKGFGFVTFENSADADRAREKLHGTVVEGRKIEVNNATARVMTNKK
Strand	RBNS enrichment (R)
GAAAUUGCCAGUGUGUACUUGGCUUAACUCAAGAACAGUUUCUUCUGGAUUCCUUAUUUGAUUUAUUUAACCUAAUUAUAUUCUAAUAUUGCAAAUAUUACCAUAAGUGG	0.582
UUUUGUUUUGUUGAGUUAAAGUAUAUUAUUGUGAGAUUUAUUUAAUAGGACUUCCUUUGAAAGCUGUAUAAUAGUGUUUCUCGGGCUUCUGUCUCUAUGAGAGAUAGCUU	0.834
ACACAAGAAAGAAUGCAAAAACAAAAGUGAUUUUUUAAAAAUGAGGUUAAAUCGAUUUUGCAUCAGUCACUGAACUGUCAGCUACGUGGCAGGAACCGGACGGAAGAAUC	0.773
GCUUUUUUUGUAUUUUAUUAAUAUAGACUCUCAUUGAAUAAUUUACCUUGCAGCAGAUUUGACAUUGCUGCAUAGAAGGGGCAGGUGUUGGUUUUUGUUUCUUGCAUUUC	2.15
GACUGUAAAUUGCGAUAAGGAAAUGUACUGAUUGCCAAUACACCCCACCCUCAUUACAUCAUCAGGACUUGAAGCCAAGGGUUAACCCAGCAAGCUACAAAGAGGGUGUG	0.242

Other studies, line by line
Substance	target	test	system	conditions	how to read	measurement	result
PhoQ, residues 284 288 289 292 302 303 WSHMKI	PhoP, residues 12 14 15 18 19 AQALL (Escherichia coli, UniProt P23836)	Sort-seq, refers to: YFP reporter	E. coli	PhoQ-PhoP variant library, with: 10 µM Mg2+	baseline: high Mg2+ state, higher = stronger signaling	fold induction	16.7

Some of these lines once more (other studies, line by line):
Substance	target	test	system	conditions	how to read	measurement	result
PhoQ, residues 284 288 289 292 302 303 WSHMKI	PhoP, residues 12 14 15 18 19 AQALL (Escherichia coli, UniProt P23836)	Sort-seq, refers to: YFP reporter	E. coli	PhoQ-PhoP variant library, with: 10 µM Mg2+	baseline: high Mg2+ state, higher = stronger signaling	fold induction	16.7
